Assay results collected from several papers.
Lines come from different studies, so protocols differ.
Genome polyprotein NS3 helicase domain: Genome polyprotein, NS3 helicase domain (Hepatitis C virus genotype 1b, UniProt Q9WMX2)
Sequence of UniProt P06493 (whole entry, looked up): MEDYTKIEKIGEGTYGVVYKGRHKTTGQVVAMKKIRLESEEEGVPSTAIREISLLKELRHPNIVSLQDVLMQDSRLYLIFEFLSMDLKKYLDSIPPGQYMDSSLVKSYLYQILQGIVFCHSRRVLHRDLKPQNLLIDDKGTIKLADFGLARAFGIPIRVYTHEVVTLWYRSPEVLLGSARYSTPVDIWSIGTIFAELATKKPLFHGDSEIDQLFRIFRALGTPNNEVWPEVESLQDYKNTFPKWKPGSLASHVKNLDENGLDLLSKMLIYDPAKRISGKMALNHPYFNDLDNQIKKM
Sequence of UniProt Q71U36 (whole entry, looked up): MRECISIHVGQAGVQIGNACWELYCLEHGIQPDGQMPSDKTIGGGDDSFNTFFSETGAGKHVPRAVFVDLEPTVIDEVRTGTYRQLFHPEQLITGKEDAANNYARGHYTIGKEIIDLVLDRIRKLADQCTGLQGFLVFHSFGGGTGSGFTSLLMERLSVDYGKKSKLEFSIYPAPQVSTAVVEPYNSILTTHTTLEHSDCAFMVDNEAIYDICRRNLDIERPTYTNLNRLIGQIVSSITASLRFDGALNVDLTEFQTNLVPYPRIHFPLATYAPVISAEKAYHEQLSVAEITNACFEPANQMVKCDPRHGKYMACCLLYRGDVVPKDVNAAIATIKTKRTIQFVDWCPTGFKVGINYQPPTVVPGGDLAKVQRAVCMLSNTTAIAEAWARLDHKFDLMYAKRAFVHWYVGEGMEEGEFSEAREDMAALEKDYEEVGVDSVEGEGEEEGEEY
Sequence of UniProt P51617 (whole entry, looked up): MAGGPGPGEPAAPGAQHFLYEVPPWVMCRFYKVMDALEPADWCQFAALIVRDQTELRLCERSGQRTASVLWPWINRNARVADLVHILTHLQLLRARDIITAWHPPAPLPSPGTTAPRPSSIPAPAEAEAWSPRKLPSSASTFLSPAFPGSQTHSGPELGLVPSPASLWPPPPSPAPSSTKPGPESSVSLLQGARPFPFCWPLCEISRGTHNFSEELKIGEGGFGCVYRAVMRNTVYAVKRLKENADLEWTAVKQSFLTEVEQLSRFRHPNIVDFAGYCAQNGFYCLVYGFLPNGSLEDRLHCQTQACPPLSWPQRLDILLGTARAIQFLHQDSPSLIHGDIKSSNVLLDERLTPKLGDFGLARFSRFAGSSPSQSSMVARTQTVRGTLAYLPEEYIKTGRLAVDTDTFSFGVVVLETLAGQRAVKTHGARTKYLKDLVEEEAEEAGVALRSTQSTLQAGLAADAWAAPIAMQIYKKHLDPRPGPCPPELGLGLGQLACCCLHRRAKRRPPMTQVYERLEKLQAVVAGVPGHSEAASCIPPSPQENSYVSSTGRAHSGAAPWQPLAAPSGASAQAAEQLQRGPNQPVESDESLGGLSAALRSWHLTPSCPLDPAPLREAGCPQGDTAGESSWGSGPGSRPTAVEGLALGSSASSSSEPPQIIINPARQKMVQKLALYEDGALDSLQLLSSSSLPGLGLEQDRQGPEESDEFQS
Sequence of UniProt P18089 (whole entry, looked up): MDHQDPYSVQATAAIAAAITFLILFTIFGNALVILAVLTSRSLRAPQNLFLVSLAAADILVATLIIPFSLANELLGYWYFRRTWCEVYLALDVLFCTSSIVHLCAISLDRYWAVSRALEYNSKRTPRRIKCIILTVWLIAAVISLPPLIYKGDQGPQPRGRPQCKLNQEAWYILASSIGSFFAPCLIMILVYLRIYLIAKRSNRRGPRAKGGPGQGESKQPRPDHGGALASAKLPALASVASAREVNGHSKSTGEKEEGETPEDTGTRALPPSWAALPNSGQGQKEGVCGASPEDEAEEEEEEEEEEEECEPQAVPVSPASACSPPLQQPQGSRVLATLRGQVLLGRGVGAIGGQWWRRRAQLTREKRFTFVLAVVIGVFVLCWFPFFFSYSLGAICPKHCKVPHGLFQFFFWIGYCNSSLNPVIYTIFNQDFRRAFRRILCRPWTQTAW
Sequence of UniProt P41143 (whole entry, looked up): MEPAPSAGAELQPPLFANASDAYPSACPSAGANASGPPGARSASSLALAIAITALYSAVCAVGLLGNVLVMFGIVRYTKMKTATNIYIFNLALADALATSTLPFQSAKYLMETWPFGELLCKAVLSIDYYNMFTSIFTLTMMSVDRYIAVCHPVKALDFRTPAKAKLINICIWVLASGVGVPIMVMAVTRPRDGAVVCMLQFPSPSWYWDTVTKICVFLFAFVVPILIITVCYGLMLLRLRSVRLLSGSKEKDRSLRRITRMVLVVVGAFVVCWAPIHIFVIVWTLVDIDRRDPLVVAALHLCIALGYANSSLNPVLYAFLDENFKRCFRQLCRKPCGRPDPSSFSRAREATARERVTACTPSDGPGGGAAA
Sequence of UniProt Q9NUJ1 (whole entry, looked up): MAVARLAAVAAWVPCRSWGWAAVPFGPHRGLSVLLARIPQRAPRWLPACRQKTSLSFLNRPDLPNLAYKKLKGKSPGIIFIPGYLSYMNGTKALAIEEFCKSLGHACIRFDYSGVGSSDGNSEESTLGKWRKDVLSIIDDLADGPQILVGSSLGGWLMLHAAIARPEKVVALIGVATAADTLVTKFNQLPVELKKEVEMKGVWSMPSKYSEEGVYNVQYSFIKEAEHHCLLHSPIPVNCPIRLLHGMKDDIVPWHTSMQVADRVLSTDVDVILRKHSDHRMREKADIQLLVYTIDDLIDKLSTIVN
Sequence of UniProt Q99678 (whole entry, looked up): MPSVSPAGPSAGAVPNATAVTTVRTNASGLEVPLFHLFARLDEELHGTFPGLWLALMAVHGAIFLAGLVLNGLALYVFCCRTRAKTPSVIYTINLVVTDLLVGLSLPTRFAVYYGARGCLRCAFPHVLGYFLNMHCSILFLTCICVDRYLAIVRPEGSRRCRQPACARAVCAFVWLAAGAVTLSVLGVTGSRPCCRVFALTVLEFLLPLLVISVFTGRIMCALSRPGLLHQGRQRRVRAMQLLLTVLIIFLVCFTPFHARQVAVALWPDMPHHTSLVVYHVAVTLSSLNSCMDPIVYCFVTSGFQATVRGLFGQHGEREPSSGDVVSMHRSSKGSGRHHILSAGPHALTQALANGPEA
Sequence of UniProt P07948 (whole entry, looked up): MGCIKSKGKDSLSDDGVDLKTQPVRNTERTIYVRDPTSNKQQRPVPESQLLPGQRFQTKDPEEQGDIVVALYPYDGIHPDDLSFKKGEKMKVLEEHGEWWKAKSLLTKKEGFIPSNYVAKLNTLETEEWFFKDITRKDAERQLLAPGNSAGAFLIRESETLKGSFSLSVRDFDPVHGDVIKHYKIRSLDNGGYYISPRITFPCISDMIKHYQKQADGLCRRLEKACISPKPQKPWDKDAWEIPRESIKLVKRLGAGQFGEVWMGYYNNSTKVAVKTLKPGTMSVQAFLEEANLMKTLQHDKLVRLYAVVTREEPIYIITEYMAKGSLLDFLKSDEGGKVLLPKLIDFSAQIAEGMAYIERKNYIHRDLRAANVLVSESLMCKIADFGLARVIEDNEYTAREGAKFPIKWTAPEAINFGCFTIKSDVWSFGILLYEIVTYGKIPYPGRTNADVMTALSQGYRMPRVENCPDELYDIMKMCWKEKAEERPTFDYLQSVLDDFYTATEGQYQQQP
Sequence of UniProt Q9H3Y6 (whole entry, looked up): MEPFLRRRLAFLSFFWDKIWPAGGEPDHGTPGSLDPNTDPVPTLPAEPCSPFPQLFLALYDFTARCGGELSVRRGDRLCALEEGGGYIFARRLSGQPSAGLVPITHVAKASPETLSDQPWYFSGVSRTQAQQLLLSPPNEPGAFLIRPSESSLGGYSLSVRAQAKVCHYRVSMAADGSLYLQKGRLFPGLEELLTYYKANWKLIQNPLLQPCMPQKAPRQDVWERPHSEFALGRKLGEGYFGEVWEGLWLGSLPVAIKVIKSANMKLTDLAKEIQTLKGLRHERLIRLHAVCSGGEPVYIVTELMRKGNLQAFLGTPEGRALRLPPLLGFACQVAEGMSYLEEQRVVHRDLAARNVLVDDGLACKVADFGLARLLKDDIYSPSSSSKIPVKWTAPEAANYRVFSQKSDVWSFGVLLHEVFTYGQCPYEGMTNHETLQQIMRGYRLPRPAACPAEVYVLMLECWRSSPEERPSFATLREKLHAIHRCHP
Sequence of UniProt P15735 (whole entry, looked up): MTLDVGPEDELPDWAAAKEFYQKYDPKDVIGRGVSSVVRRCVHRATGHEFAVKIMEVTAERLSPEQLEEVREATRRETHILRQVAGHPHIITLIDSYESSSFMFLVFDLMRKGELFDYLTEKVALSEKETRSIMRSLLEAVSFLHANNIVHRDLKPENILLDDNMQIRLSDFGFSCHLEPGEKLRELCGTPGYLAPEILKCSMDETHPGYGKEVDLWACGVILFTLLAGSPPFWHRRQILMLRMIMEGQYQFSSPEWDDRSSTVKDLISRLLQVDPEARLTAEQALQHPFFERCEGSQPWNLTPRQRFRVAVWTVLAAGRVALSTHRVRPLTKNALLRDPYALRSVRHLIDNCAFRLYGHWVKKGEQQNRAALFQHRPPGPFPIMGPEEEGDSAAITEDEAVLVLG
Sequence of UniProt Q96P65 (whole entry, looked up): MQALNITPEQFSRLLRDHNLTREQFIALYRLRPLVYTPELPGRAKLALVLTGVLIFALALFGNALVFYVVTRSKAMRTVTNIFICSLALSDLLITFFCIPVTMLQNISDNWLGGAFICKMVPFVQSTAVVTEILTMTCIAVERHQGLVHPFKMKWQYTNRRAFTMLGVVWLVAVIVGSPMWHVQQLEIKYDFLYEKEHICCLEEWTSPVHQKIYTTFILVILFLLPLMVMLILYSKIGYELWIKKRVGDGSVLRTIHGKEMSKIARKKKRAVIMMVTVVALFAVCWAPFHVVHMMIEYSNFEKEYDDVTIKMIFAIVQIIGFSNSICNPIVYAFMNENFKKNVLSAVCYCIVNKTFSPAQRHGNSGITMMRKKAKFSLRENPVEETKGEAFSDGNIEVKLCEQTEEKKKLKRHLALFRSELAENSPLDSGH

CC(=O)NC[C@H]1[C@H](O)[C@H](O)[C@@H]2[C@H](O)C[C@@H](CO)N21 — inhibition (Spodoptera litura β-N-acetylglucosaminidase; crude enzyme; 0.0251 µM, run 1, added: p-nitrophenyl GlcNAc): 62.7%
CN(C(=O)n1cnc(-c2ccc[n+]([O-])c2)c1)C1CCCCC1 — inhibition (OPRD1 (Homo sapiens, UniProt P41143); binding; 10 µM, added: [3H]naltrindole): 9%
c1ccc(C(NCCNC(c2ccccc2)c2ccccc2)c2ccccc2)cc1 — inhibition (Tyrosine-protein kinase Lyn, isoform B (LYN, Homo sapiens, UniProt P07948); enzyme activity; 10 µM, Eurofins selectivity panel): -9%
COc1ccc(N2C(=O)N(c3c(C)cccc3Cl)Cc3cnc(Nc4ccc(C5CCN(C)CC5)cc4OC)nc32)nc1 — inhibition (IRAK1 (Homo sapiens, UniProt P51617); kinase activity; 0.5 µM): 5.43%
FC(F)(F)c1cccc(Nc2nc(NCCOc3ccccc3)nc3[nH]cnc23)c1 — inhibition (Cyclin-dependent kinase 1, with cyclin B (CDK1, Homo sapiens, UniProt P06493); Z'-LYTE or Adapta; 5 µM): 6%
C[N+]1(C)CCOC(O)(c2ccc(-c3ccc(C4(O)C[N+](C)(C)CCO4)cc3)cc2)C1 (stereo not drawn) — inhibition (Genome polyprotein NS3 helicase domain; DNA binding, inhibitor; hepatitis C virus; 100 µM, added: Cy5-dT15 DNA): 3%
COc1cc(Nc2ncc(F)c(Nc3ccc4c(n3)NC(=O)C(C)(C)O4)n2)cc(OC)c1OC — inhibition (SRMS (Homo sapiens, UniProt Q9H3Y6); KINOMEscan; 10 µM): 86%
[2H]c1c([2H])c([C@]2([2H])CCCN2C(=O)C(C)(C)Oc2ccc3cn[nH]c3c2)c([2H])c([2H])c1C([2H])([2H])[2H] — remaining binding (TNIK (Homo sapiens, UniProt Q9UKE5); KINOMEscan; 1 µM; reference: DMSO control): 86%
Oc1ccc2c3c1O[C@H]1[C@@H](O)CC[C@@]4(O)[C@@H](C2)N(CC2CCC2)CC[C@]314 — log2 fold change (G-protein coupled receptor 20 (GPR20, Homo sapiens, UniProt Q99678); β-arrestin recruitment, TANGO luminescence, measured: GPR20; concentration not given; reference: basal luminescence): 0.108
CC[C@H](C)[C@H](NC(=O)[C@H](Cc1ccccc1)NC(=O)[C@H](CCC(=O)O)NC(=O)[C@H](CCCNC(=N)N)NC(=O)[C@H](C)NC(=O)[C@H](C)NC(=O)[C@H](CCC(N)=O)NC(=O)[C@H](CCC(=O)O)NC(=O)[C@H](CCC(=O)O)NC(=O)[C@H](CC(C)C)NC(=O)[C@H](Cc1ccc(O)cc1)NC(=O)[C@H](CO)NC(=O)[C@H](CO)NC(=O)[C@@H](NC(=O)[C@H](CC(=O)O)NC(=O)[C@H](CO)NC(=O)[C@@H](NC(=O)[C@H](Cc1ccccc1)NC(=O)[C@@H](NC(=O)CNC(=O)[C@H](CCC(=O)O)NC(=O)[C@H](C)NC(=O)CCc1c[nH]cn1)[C@@H](C)O)[C@@H](C)O)C(C)C)C(=O)N[C@@H](C)C(=O)N[C@@H](Cc1c[nH]c2ccccc12)C(=O)N[C@@H](CC(C)C)C(=O)N[C@H](C(=O)N[C@@H](CCCNC(=N)N)C(=O)NCC(=O)N[C@@H](CCCNC(=N)N)C(=O)N[C@@H](CCCCNC(=O)COCCOCCNC(=O)COCCOCCNC(=O)CC[C@H](NC(=O)CCCCCCCCCCCCCCCCC(=O)O)C(=O)O)C(=O)NCC(=O)NCC(=O)N[C@@H](CO)C(=O)N[C@@H](CCCCNc1c(NCCCCCN(O)C(=O)CCC(=O)NCCCCCN(O)C(=O)CCC(=O)NCCCCCN(O)C(C)=O)c(=O)c1=O)C(=O)O)C(C)C [zirconium-89 labelled] — tissue uptake (gamma counting; rat, colon content; intravenous, 3 nmol/kg, 168 h): 0.05 %ID/g
CN1CCN(c2cc(-c3ccncc3)c(-c3ccc4ccccc4c3)nn2)CC1 — inhibition (QRFPR (Homo sapiens, UniProt Q96P65); antagonist, FLIPR; 10 µM): 13.2%
O=C(Nc1cnccc1Cl)N1CCN(Cc2ccc3c(c2)OC(F)(F)O3)CC1 — inhibition (PHKG2 (Homo sapiens, UniProt P15735); kinase activity, inhibitor; 50 µM, human): 14%
O=C(c1ccc(Cl)cc1)N1CCN2C(=O)N(OC(=O)N3CCOc4ccccc43)C(=O)C2C1 (stereo not drawn) — median protein ratio (Palmitoyl-protein thioesterase ABHD10, mitochondrial (Homo sapiens, UniProt Q9NUJ1); MS-based ABPP; SW-620 conditioned medium; 10 µM, 1 h, 37 °C; reference: compound over DMSO, lower = more inhibition): 1.17
O=C(Nc1cccnn1)N1CCC(=Cc2cccc(Oc3ccc(C(F)(F)F)cn3)c2)CC1 — inhibition (ADRA2B (Homo sapiens, UniProt P18089); binding; 10 µM, added: [3H]rauwolscine): 13%
O=C1C=CC(=O)C=C1 — inhibition (Genome polyprotein NS3 helicase domain; DNA binding, inhibitor; hepatitis C virus; 100 µM, added: Cy5-dT15 DNA): 0%
C[C@H]1CN(c2n[nH]c3nc(N[C@H]4CC[C@H](NS(=O)(=O)CCC(F)(F)F)CC4)ncc23)CCO1 — remaining binding (Tubulin alpha-1A chain (Homo sapiens, UniProt Q71U36); Kinobeads competition, measured: TUBA1A; 0.16 µM, unit not given; reference: vehicle): 1.02
CC[C@H](C)[C@@H]1NC(=O)[C@@H]2CCCN2C(=O)[C@H](CC(C)C)NC(=O)[C@H](CC(C)C)NC(=O)CNC(=O)[C@@H](NC(=O)[C@@H](NC(=O)[C@H](CC(=O)O)NC(=O)CNC(=O)[C@@H](NC(=O)[C@H](C)NC(=O)CNC(=O)[C@H](CCCCN)NC(=O)[C@H](CC(C)C)NC(=O)[C@H](CC(C)C)NC(=O)[C@H](CCCCN)NC(=O)CNC(=O)[C@@H](NC(=O)[C@@H](N)CC(C)C)C(C)C)C(C)C)C(C)C)CSSC[C@@H](C(=O)O)NC1=O — log2 fold change (RNA-seq, measured: Cacna1i; mouse, traumatic brain injury model, frontal cortex and hippocampus; dose not given; reference: TBI alone): -0.654
O=C(N[C@@H](Cc1ccccc1)C(=O)CCl)OCc1ccccc1 — inhibition (Genome polyprotein NS3 helicase domain; DNA binding, inhibitor; hepatitis C virus; 100 µM, added: Cy5-dT15 DNA): 0%

Excerpt of the above:
O=C(Nc1cnccc1Cl)N1CCN(Cc2ccc3c(c2)OC(F)(F)O3)CC1 — inhibition (PHKG2 (Homo sapiens, UniProt P15735); kinase activity, inhibitor; 50 µM, human): 14%
O=C(c1ccc(Cl)cc1)N1CCN2C(=O)N(OC(=O)N3CCOc4ccccc43)C(=O)C2C1 (stereo not drawn) — median protein ratio (Palmitoyl-protein thioesterase ABHD10, mitochondrial (Homo sapiens, UniProt Q9NUJ1); MS-based ABPP; SW-620 conditioned medium; 10 µM, 1 h, 37 °C; reference: compound over DMSO, lower = more inhibition): 1.17
O=C(Nc1cccnn1)N1CCC(=Cc2cccc(Oc3ccc(C(F)(F)F)cn3)c2)CC1 — inhibition (ADRA2B (Homo sapiens, UniProt P18089); binding; 10 µM, added: [3H]rauwolscine): 13%
